Measured values collected from several papers.
Protocols differ between the studies behind these lines.

SMILES | organism | test | test system | setting | MIC
CN1C(=O)[C@@H]2NC(=O)[C@@H]3NC(=O)[C@@H](c4ccc(O)cc4)NC(=O)[C@H](NC(=O)C(N)c4ccc(O)cc4)Cc4c[nH]c5cc(ccc45)-c4cc3cc(c4O)Oc3ccc(cc3)C[C@H]1C(=O)N[C@@H](C(=O)O)c1ccc(O)c(c1)Oc1ccc2cc1 (some centres unmarked) | Enterococcus faecium |  | WCC 0534, VRE-A |  | 4 to 8 µg/mL
CN[C@@H]1[C@H](O)[C@H](NC)[C@H]2O[C@]3(O)[C@H](O[C@@H]2[C@H]1O)O[C@H](C)C[C@@]3(O)CNCCc1ccc(F)cc1 | Mycobacteroides abscessus |  | ATCC 19977 resistant mutants, helix 34 mutations |  | > 200 µg/mL
CO[C@H]1/C=C/O[C@@]2(C)Oc3c(C)c(O)c4c(c3C2=O)C2=NC3(CCN(CC(C)C)CC3)NC2=C(NC(=O)/C(C)=C\C=C\[C@H](C)[C@H](O)[C@@H](C)[C@@H](O)[C@@H](C)[C@H](OC(=O)c2cccnc2)[C@@H]1C)C4=O | Mycobacteroides abscessus |  | ATCC 19977 arr deletion | 90% growth inhibition | 0.026 µM
CN1C(=O)[C@@H]2NC(=O)[C@@H]3NC(=O)[C@@H](c4ccc(O)cc4)NC(=O)[C@H](NC(=O)C(NCc4cc(C(F)(F)F)cc(C(F)(F)F)c4)c4ccc(O)cc4)Cc4c[nH]c5cc(ccc45)-c4cc3cc(c4O)Oc3ccc(cc3)C[C@H]1C(=O)N[C@@H](C(=O)O)c1ccc(O)c(c1)Oc1ccc2cc1 (some centres unmarked) | Enterococcus faecium |  | brain heart infusion medium |  | 8 to 16 µg/mL
CN[C@@H]1[C@H](O)[C@H](NC)[C@H]2O[C@]3(O)[C@H](O[C@@H]2[C@H]1O)O[C@H](C)C[C@@]3(O)CNCc1ccc(F)cc1 | Streptococcus pyogenes |  | ATCC 700294 |  | 1.6 µg/mL
COc1ccc(C2=[N+]([O-])c3ccccc3N3CCCN=C23)cc1 | Parvimonas micra |  | ATCC 3870 |  | 0.25 µg/mL
CC[C@H](C)[C@H](NC(=O)[C@H](CO)NC(=O)[C@H](CO)NC(=O)[C@H](Cc1ccccc1)NC(=O)CN)C(=O)N[C@@H](Cc1ccccc1)C(=O)N[C@@H](CCCNC(=N)N)C(=O)NCC(=O)N[C@H](C(=O)N[C@@H](C)C(=O)N[C@@H](CCCCN)C(N)=O)C(C)C | Escherichia coli |  | ATCC 8739 | added: 0.5 mM KCl | > 128 µM
CC[C@H](C)[C@H](NC(=O)[C@H](CCCCN)NC(=O)[C@H](CCCCN)NC(=O)[C@H](Cc1ccccc1)NC(=O)[C@H](Cc1ccccc1)NC(=O)[C@H](CCCCN)NC(=O)[C@H](CCCCN)NC(=O)[C@H](Cc1ccccc1)NC(=O)[C@H](CCCNC(=N)N)NC(=O)[C@@H](N)CCCCN)C(=O)N[C@@H](CCCCN)C(=O)N[C@@H](CCCCN)C(=O)N[C@@H](CO)C(=O)N[C@H](C(=O)N[C@@H](CCCCN)C(=O)N[C@@H](CCCCN)C(=O)N[C@@H](CCCNC(=N)N)C(=O)N[C@H](C(=O)N[C@@H](CCCCN)C(=O)N[C@@H](CCCCN)C(=O)N[C@@H](CC(C)C)C(=O)N[C@@H](Cc1ccccc1)C(=O)N[C@@H](CCCCN)C(=O)N[C@@H](CCCCN)C(=O)N1CCC[C@H]1C(=O)N[C@@H](CCCNC(=N)N)C(=O)N[C@H](C(=O)N[C@H](C(=O)N1CCC[C@H]1C(=O)N[C@H](C(=O)N[C@@H](CO)C(=O)N[C@H](C(=O)N1CCC[C@H]1C(=O)N[C@@H](Cc1ccccc1)C(=O)O)[C@@H](C)CC)[C@@H](C)CC)[C@@H](C)CC)C(C)C)C(C)C)C(C)C | Helicobacter pylori |  | SS1 | 48 h | 4 µg/mL
[O-][N+]1=C(c2ccsc2)C2=NCCCN2c2ccccc21 | Parvimonas micra |  | ATCC 3870 |  | ≤ 0.06 µg/mL
CN[C@@H]1[C@H](O)[C@H](NC)[C@H]2O[C@]3(O)[C@H](O[C@@H]2[C@H]1O)O[C@H](C)C[C@@]3(O)CNCCC1CCOCC1 | Mycobacteroides abscessus |  | ATCC 19977 ∆whiB7 ∆tap | 120 h | 8 µg/mL
CC[C@@H](C)[C@@H](NC(=O)[C@@H](C)NC(=O)[C@@H](CCCCN)NC(=O)[C@@H](CC(C)C)NC(=O)[C@@H](C)NC(=O)[C@H](NC(=O)[C@@H](Cc1c[nH]cn1)NC(=O)[C@@H](CC(C)C)NC(=O)[C@H](NC(=O)[C@H](NC(=O)[C@@H](CCCCN)NC(=O)[C@@H](CCCCN)NC(=O)[C@@H](C)NC(=O)[C@@H](CO)NC(=O)[C@@H](CCCCN)NC(=O)[C@@H](Cc1ccccc1)NC(=O)[C@H](NC(=O)[C@@H](CCCCN)NC(=O)[C@@H](CC(C)C)NC(=O)[C@@H](Cc1ccccc1)NC(=O)[C@@H](CO)NC(=O)[C@@H](CCCCN)NC(=O)[C@@H](Cc1c[nH]c2ccccc12)NC(=O)[C@@H](CCCCN)NC(C)=O)[C@H](C)O)[C@H](C)O)C(C)C)[C@H](C)O)C(=O)N[C@H](CO)C(=O)N[C@H](CO)C(N)=O | Acinetobacter baumannii |  | 649, Mueller-Hinton broth | 24 h, 37 °C | 0.8 µM
CO[C@H]1/C=C/O[C@@]2(C)Oc3c(C)c(O)c4c(c3C2=O)C2=NC3(CCN(CC(C)C)CC3)NC2=C(NC(=O)/C(C)=C\C=C\[C@H](C)[C@H](O)[C@@H](C)[C@@H](O)[C@@H](C)[C@H](OC(=O)c2nccs2)[C@@H]1C)C4=O | Mycobacteroides abscessus |  | ATCC 19977 arr deletion | 90% growth inhibition | 0.017 µM
CN[C@@H]1[C@H](O)[C@H](NC)[C@H]2O[C@]3(O)[C@H](O[C@@H]2[C@H]1O)O[C@H](C)C[C@@]3(O)CNCc1ccc(OC(F)(F)F)cc1 | Streptococcus pyogenes |  | ATCC 700294 |  | 1.6 µg/mL
CCCCCCSCC1OC(OC2C(N)CC(N)C(OC3OC(CN)C(O)CC3N)C2O)C(O)C(N)C1O (centres unmarked) | Shigella |  | clinical isolate |  | > 150 µg/mL
CCCCc1ccc(-c2nc(C)c(C(C)=NNC(=N)N)s2)cc1 | Staphylococcus aureus |  | VRS4 VRSA |  | 0.7 µg/mL
CCCCCCCCCCCCCCCCCCSCC1OC(OC2C(N)CC(N)C(OC3OC(CN)C(O)CC3N)C2O)C(O)C(N)C1O (centres unmarked) | Shigella |  | clinical isolate |  | > 150 µg/mL
CO[C@H]1/C=C/O[C@@]2(C)Oc3c(C)c(O)c4c(c3C2=O)C2=NC3(CCN(CC(C)C)CC3)NC2=C(NC(=O)/C(C)=C\C=C\[C@H](C)[C@H](O)[C@@H](C)[C@@H](O)[C@@H](C)[C@H](OC(=O)c2cccc(F)c2)[C@@H]1C)C4=O | Mycobacteroides abscessus |  | ATCC 19977 arr deletion | 90% growth inhibition | 0.09 µM
CN1C(=O)[C@@H]2NC(=O)[C@@H]3NC(=O)[C@@H](c4ccc(O)cc4)NC(=O)[C@H](NC(=O)C(NCc4ccc(O)c(O)c4O)c4ccc(O)cc4)Cc4c[nH]c5cc(ccc45)-c4cc3cc(c4O)Oc3ccc(cc3)C[C@H]1C(=O)N[C@@H](C(=O)O)c1ccc(O)c(c1)Oc1ccc2cc1 (some centres unmarked) | Enterococcus faecium |  | brain heart infusion medium |  | 16 µg/mL
C[N+]1=C2C(c3ccc(Cl)cc3)=[N+]([O-])c3ccccc3N2CCC1 | Parvimonas micra |  | ATCC 3870 |  | 1 µg/mL
CN(C)CCCNC(=O)[C@@H]1NC(=O)[C@@H]2Cc3ccc(cc3)Oc3cc4cc(c3O)-c3ccc5c(c[nH]c5c3)C[C@@H](NC(=O)C(NC(=O)CCCCCN)c3ccc(O)cc3)C(=O)N[C@H](c3ccc(O)cc3)C(=O)N[C@H]4C(=O)N[C@@H](C(=O)N2C)c2ccc(cc2)Oc2cc1ccc2O (some centres unmarked) | Enterococcus faecium |  | WCC 0558, VRE-B, BHI medium |  | 1 to 2 µg/mL
[O-][N+]1=C(Cc2ccccc2)C2=NCCCN2c2ccccc21 | Porphyromonas sp. |  |  |  | 1 µg/mL
CC[C@H](C)[C@H](NC(=O)[C@@H](NC(=O)CN)C(C)C)C(=O)N[C@@H](Cc1ccccc1)C(=O)N[C@@H](CC(N)=O)C(=O)N[C@@H](C)C(=O)N[C@@H](CC(C)C)C(=O)N[C@@H](CCCCN)C(=O)NCC(=O)N[C@H](C(=O)N[C@@H](C)C(=O)N[C@@H](CCCCN)C(=O)N[C@H](C(=O)N[C@H](C(=O)N[C@@H](C)C(=O)N[C@@H](C)C(=O)N[C@@H](CCC(N)=O)C(=O)N[C@@H](CC(C)C)C(=O)N[C@@H](CC(C)C)C(=O)N[C@@H](CCCCN)C(=O)N[C@@H](CCCCN)C(=O)N[C@@H](C)C(=O)N[C@@H](CCCNC(=N)N)C(=O)N[C@H]1CSSC[C@@H](C(=O)O)NC(=O)[C@H](CO)NC(=O)[C@H](CCCCN)NC(=O)[C@H](CC(=O)O)NC(=O)[C@H](CC(C)C)NC(=O)[C@H](CCCCN)NC1=O)C(C)C)[C@@H](C)O)C(C)C | Staphylococcus aureus |  | MRSA NCTC 12493 | added: NH4Cl 6 µM | 2 µM
S=C(NCc1ccccn1)NCc1ccccn1 | Proteus vulgaris | microbial growth, well diffusion |  |  | 12.2 µg/mL
CN[C@@H]1[C@H](O)[C@H](NC)[C@H]2O[C@]3(O)[C@H](O[C@@H]2[C@H]1O)O[C@H](C)C[C@@]3(O)CNCc1ccc(F)cc1 | Mycobacteroides abscessus |  | ATCC 19977 ∆tap | 120 h | > 128 µg/mL
[O-][N+]1=C(c2ccccc2)C2=NCCCN2c2ncccc21 | Parvimonas micra |  | ATCC 3870 |  | ≤ 0.06 µg/mL
CC[C@H](C)[C@H](NC(=O)[C@H](CCCCN)NC(=O)CNC(=O)[C@H](CC(C)C)NC(=O)[C@H](CC(C)C)NC(=O)[C@H](Cc1c[nH]cn1)NC(=O)[C@H](Cc1ccccc1)NC(=O)[C@@H](N)C(C)C)C(=O)N[C@H](C(=O)N[C@@H](Cc1c[nH]cn1)C(=O)N[C@@H](Cc1c[nH]cn1)C(=O)N[C@H](C(=O)NCC(=O)N[C@@H](CC(N)=O)C(=O)N[C@@H](Cc1ccccc1)C(=O)N[C@H](C(=O)N[C@@H](Cc1ccc(O)c(O)c1)C(=O)NCC(=O)N[C@@H](Cc1ccccc1)C(=O)N[C@@H](CO)C(=O)N[C@@H](Cc1c[nH]cn1)C(=O)N[C@H](C(=O)N[C@@H](Cc1ccccc1)C(N)=O)C(C)C)C(C)C)C(C)C)[C@@H](C)CC | Enterobacter cloacae | broth microdilution | AR 0136 | pH 5.5 | 16 µM

A few entries again:
SMILES | organism | test | test system | setting | MIC
CCCCCCSCC1OC(OC2C(N)CC(N)C(OC3OC(CN)C(O)CC3N)C2O)C(O)C(N)C1O (centres unmarked) | Shigella |  | clinical isolate |  | > 150 µg/mL
[O-][N+]1=C(Cc2ccccc2)C2=NCCCN2c2ccccc21 | Porphyromonas sp. |  |  |  | 1 µg/mL
